Experimental data collected from several papers.
A part holds a random share of what one study measured. Changes are numbered by the printed parent chain.

Sample 1 — target: UBE2D4 UBC core domain (UniProt Q9Y2X8); method: yeast two-hybrid; medium: yeast; setting: mostly zero background; baseline: not given; direction: higher = stronger interaction
B1: Ltn1 RING domain (UniProt Q6A009); chain VDKRFEGVEDCMICFSVIHGFNYSLPKKACRTCKKKFHSACLYKWFTSSNKSTCPLCRETFF
B2: RNF24 RING domain (UniProt Q9Y225); chain KVKELNLHELCAVCLEDFKPRDELGICPCKHAFHRKCLIKWLEVRKVCPLCNMPVLQLAQLH
Target sequence (chain): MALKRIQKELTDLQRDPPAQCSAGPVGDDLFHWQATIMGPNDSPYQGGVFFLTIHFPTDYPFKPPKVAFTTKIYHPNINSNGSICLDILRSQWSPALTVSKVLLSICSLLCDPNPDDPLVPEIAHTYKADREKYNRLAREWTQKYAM
Sequence | lacZ reporter activity
KEQLEKHNDICAICYQDMKSAVITPCSHFFHAGCLKKWLYVQETCPLCHCHLKNSSQLP (RNF145 RING domain (UniProt Q96MT1)) | 0
B1 (Ltn1 RING domain) | 0
MDDQGCPRCKTTKYRNPSLKLMVNVCGHTLCESCVDLLFVRGAGNCPECGTPLRKSNFRV (MNAT1 RING domain (UniProt P51948)) | 0
B2 (RNF24 RING domain) | 0

Sample 2 — method: RNA Bind-n-Seq; form: RNA; medium: in vitro; concentration: 365 nM; baseline: no-protein control; direction: higher = stronger binding
Target: RNA binding protein fox-1 homolog 2, RRM domain, GST-SBP tag (RBFOX2, Homo sapiens, UniProt O43251-10, residues 100-194)
Setting: natural RNA segment, single round, ends assumed
Constant ends, left off below: GGGAGUUCUACAGUCCGACGAUC … UGGAAUUCUCGGGUGCCAA
Target sequence (chain): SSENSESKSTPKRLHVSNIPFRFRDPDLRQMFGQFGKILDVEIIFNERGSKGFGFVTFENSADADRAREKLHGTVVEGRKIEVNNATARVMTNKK
Strand | RBNS enrichment (R)
CCUGCUUCCUAUCUCUGGAGGAGCUUCCCCACGCGGGAGAGCAAUGGCAGAGGAUCCACACAUCCUGAACAGCUGCUUUAUGAGACACCUUUACUUUAUCUUGGCUUAAG | 0.889
ACCAAGGAAGAAAGAUCGUUCUGAAGUUACCCUCUGUCAUACAUUUGGUCUCUUUGACUUGGUUUCUAUAAAUGUUUUUAAAAUGAAGUAAAGCUCUUCUUUACGAGGGG | 0.659
GAUUCUCGACCUUCCCCCGGCCCGGGAGGUGCAGCCUGCGUCUGCCUCUGUCGUGUGUGCUGAUUUGAGUGGCUUAGCUUGCCACAGCGCAGCCUCUUCUGUCCCUUUCA | 0.382
UCAGCAUACCAUGCCAAGGCACACCGACCUACCAGCCAAUAACUGUUCUGCCUCUGCCUUGAUACUGCCUCAGGAUUCCCUAUCCCAUACCCUGGGAAAUUUGAGGGACC | 0.269
AGAUAUUUAUAUCAAUUCCUACAGCUUUCCCCUGCCAUCCCUGAACUCUUUCUAGCCCUUUUAGAUUUUGGCACUGUGAAACCCCUGCUGGAAACCUGAGUGACCCUCCC | 0.425
AAGAUUAAAAGUUCAUAUAUAGGCUAAAGAUGUAACUAGGCCAUUUGUAUUUGUAUUCCCUUUUAUUUCCAAAAUAAAAUGAAAAAUCUUUUUUUAAUAAUUUCAUCCCU | 0.881
CCAUCUACUGCUGGCCAGGAGCCCCCAGUGCCCUGUGGUGGUGGACACCAUGCAGAACCAGAGCAGCCAGCUCUACGCAGCACUGCCUGAGAGGCUCUACAUAAUCCAGG | 0.193
ACUUUGAACAUUCGUUAUGGGGAAAACAUCCUUUAACUUCGGGGUCGUCUGCCAGAGCAGGGUCUGGGAGGGUCCAUGCAGUUCCCGCUGGUGUGGAGGGAAAUGCCCUG | 0.487

Sample 3 — method: DHFR PCA, deep sequencing; medium: yeast; added: (+)-ABA 17 µM; baseline: wild-type fitted maximum; direction: higher = stronger binding
Target: ABI1, truncated, D143A, DHFR fusion (Arabidopsis thaliana)
Setting: methotrexate growth selection, single substitutions
Parent: PYL1, truncated, DHFR fusion (Arabidopsis thaliana); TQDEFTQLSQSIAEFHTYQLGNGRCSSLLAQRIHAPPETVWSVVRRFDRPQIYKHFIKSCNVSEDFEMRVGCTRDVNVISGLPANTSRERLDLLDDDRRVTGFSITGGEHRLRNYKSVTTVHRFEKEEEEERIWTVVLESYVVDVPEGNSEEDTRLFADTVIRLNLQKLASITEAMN
Substitution | relative binding score [%]
E130C | 87.1
P36A | 74.9
P37E | 47.5
P37W | 4.69
W134R | 66.1
N165K | 5.16
E4V | 87.5
K116R | 91.7

Sample 4 — read-out: peptide-MHC binding; form: peptide; concentration: concentration not given
Target: HLA class I histocompatibility antigen, A alpha chain, allele A*25:01 (Homo sapiens, UniProt P04439)
Sequence | binding
LEARVNLSV | inactive
SIPFGLMSA | inactive
FTFERSKIK | inactive
LPWFLDTTI | inactive

Sample 5 — target: CCND1, cyclin fold, Cln2 fusion (human); method: yeast growth competition, sequencing; medium: yeast; setting: strong parent motif; baseline: not given; direction: higher = stronger binding
Parent: viral docking peptide; YKVKRRLVFGADD; partner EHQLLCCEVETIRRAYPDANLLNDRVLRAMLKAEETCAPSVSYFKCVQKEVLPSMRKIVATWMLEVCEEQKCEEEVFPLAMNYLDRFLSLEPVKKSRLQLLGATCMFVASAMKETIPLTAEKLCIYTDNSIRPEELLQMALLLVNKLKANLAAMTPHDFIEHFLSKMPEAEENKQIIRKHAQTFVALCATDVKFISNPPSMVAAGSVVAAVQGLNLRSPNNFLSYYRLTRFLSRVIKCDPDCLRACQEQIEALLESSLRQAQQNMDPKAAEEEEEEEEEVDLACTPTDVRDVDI
Substitution | normalised enrichment score
D12S | 1.12
K4R | 2.95
K2C | 2.75
R5V | 0.875
K2E | 2.14
R6C | 1.21
L7C | -0.423
R5D | 0.3
V8N | 2.17
D12F | 0.843
V3Q | 0.343
G10A | 1.84
V8E | 2.83
F9W | 0.396
A11H | 2.16
F9P | -0.105
K2A | 1.6
F9M | -0.0366
R5M | 0.344
F9S | -0.0283
L7V | -0.112
R6W | 0.505
R6M | 1.07
R5G | -0.131
V3D | 0.0989

Sample 6 — method: competition protein-binding microarray; form: double-stranded DNA, one strand shown; medium: in vitro; concentration: 2 µM; added: Cbf1 competitor, 0.05 µM; direction: higher = stronger binding; constant ends, left off below: … GTCTTGATTCGCTTGACGCTGCTG
Target: Phosphate system positive regulatory protein PHO4, full length, GST-tagged (PHO4, Saccharomyces cerevisiae, UniProt P07270, residues 1-312)
Setting: whole 60-bp probe, lowest competitor level
Target sequence (chain): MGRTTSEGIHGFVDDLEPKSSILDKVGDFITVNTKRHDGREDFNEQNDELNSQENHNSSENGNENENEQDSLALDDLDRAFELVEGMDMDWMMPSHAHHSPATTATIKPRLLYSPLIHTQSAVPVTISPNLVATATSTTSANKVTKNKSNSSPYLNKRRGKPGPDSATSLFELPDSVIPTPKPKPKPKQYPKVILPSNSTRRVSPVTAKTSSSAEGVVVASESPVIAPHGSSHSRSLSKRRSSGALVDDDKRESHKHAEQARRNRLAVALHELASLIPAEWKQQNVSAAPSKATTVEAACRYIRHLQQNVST
Strand | fluorescence intensity
CCATGCTGTTTCCATCACGTGCAAATAACCTTTTTG | 16500 a.u.
CGTCCTAGTGATTGGTGCGTGGGTGCCATGAGGAAG | 10800 a.u.
CACTACATAACCCGTCACGTTTCAAAAACGAGCCAA | 12900 a.u.
CGTCCTAGTGATTGCGTAGTGGGTGCCATGAGGAAG | 6590 a.u.
TGCGCAACAACTTGTTCGGTGGGTGTATGTCTAGAA | 4600 a.u.
GTAATGCCATGGTTTCGCGTGCTTTTTTCCCCTTGC | 6960 a.u.
CTTTTATGATCGAGTCACCTGACGAACCATTCTTGA | 3590 a.u.
CGCCGTTCAGGGGTCCATGTGCCTTGGACGATATTA | 9920 a.u.

A few entries again (sample 5):
Substitution | normalised enrichment score
D12S | 1.12
K4R | 2.95
K2C | 2.75
R5V | 0.875
K2E | 2.14
R6C | 1.21
